Measurements pooled from the literature.
Each line is one published result; not all experiments were run side by side. “And” joins repeats or separate records; there may be more than shown.
Target: Glycogen synthase kinase-3 alpha (GSK3A, Homo sapiens, UniProt P49840)
Sequence of UniProt P49840 (whole entry, unmodified, looked up): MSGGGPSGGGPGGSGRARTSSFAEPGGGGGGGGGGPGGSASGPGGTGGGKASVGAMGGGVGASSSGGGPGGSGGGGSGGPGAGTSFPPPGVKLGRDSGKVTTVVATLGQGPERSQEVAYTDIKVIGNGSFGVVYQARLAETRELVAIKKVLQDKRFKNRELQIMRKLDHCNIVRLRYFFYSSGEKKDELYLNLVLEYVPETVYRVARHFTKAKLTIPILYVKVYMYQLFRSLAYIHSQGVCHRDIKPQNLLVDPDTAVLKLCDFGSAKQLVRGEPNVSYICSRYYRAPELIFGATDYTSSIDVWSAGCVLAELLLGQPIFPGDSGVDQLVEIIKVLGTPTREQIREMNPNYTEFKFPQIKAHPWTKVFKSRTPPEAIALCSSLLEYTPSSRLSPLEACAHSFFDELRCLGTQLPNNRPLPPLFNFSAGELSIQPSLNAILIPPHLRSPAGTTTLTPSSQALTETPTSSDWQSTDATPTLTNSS

| Structure (SMILES) | assay | system | setting | scale | endpoint | value |
| --- | --- | --- | --- | --- | --- | --- |
| O=C=[N][Ru-4]123([n]4c5ccc(O)cc5c5c6c(c7cc(F)c[n+]1c7c54)C(=O)NC6=O)[S+]1CC[S+]2CC[S+]3CC1 (stereo not shown) | enzyme activity | – | 100 nM, human enzyme, added: 10 µM ATP | relative to: untreated | remaining activity | 58% |
| Nc1ncc2c(n1)-c1c([nH]c3ccc(C4=CCOCC4)cc13)CCC2 | binding, competition with immobilised ligand | – | 1 µM | – | remaining binding | 100% |
| CS(=O)(=O)Nc1cccc(-c2csc3cnc(Nc4ccc(N5CCN(CCCCCOc6cccc7c6C(=O)N(C6CCC(=O)NC6=O)C7=O)CC5)cc4)nc23)c1 (stereo not shown) | probe labelling, inhibitor, KiNativ chemoproteomics | MOLT-4 | 1 µM | – | inhibition | -3.95% |
| COCC12C(=O)NC3C4(C(OC)CC1O)C1CC5(O)C(OC)C(O)C(OC(C)=O)(C1C5OC(=O)c1ccccc1)C3(O)C(OC)C24 (stereo not shown) | kinase activity, inhibitor, ProQinase kinase profiling | – | 25 µM | relative to: control | remaining activity | 90% and 102% |
| CCn1cc(C(=O)O)c(=O)c2c(N)c(F)c(NC3CCCCC3)cc21 | enzyme activity, inhibitor | – | 0.1 µM | – | inhibition | > 70% |
| NC(=O)[C@@H](O)C[C@H]1CCc2sc3ncnc(O[C@H]4CC[C@H](N5CCOCC5)CC4)c3c21 | enzyme activity, inhibitor | – | 10 µM | – | inhibition | 11% |
| CC(C)=CC1OC(C)(C)C2C=C3C(=O)C(Cl)=CC(O)C3C3C(O)C4OC4C(=O)C132 (stereo not shown) | cell-free assay, competition with immobilised ligand | – | 10 µM | – | remaining binding | 98% |
| N[C@H]1CC[C@H](Nc2nccc(-c3cccnc3Oc3ccc(NC(=O)NC4CC4)c4ccccc34)n2)CC1 | kinobead competition pulldown | HEK293/HCT116 lysate mixture | 10 µM, 1 h, 4 °C | lower = stronger competition | log2 LFQ intensity | 29.3 and 29.2 and 29.1 |
| COc1c(OCCCN2CCOCC2)ccc2c1N=C(NC(=O)c1cnc(N)nc1)N1CCN=C21 | kinase activity, inhibitor | – | 1 µM | relative to: untreated control | remaining activity | 122% |
| CNC(=O)C[C@H](Cc1ccc(C#N)cc1)NC(=O)c1cc(-c2ccc(CN[C@H](C)c3ccc(C)cc3)o2)ccc1Cl | enzyme activity, inhibitor | – | 1 µM | – | activity vs control | 100% |
| COc1cc(Nc2nc(C)cc(-c3cnn4nc(OC)ccc34)n2)cc(C(F)(F)F)c1 | inhibitor | – | 1 µM | relative to: control | remaining activity | 100% |
| C=CC(=O)N1CCCC(n2c(=O)c3ncccc3n(Cc3ccc(Oc4ccccc4)cc3)c2=O)C1 (stereo not shown) | cell-free assay, competition with immobilised ligand | – | 1 µM | – | remaining binding | 98% |
| C=CC(=O)Nc1cccc(-c2cnc3[nH]cc(C(=O)NC(C)(C)C)c3n2)c1 | kinase activity | – | 0.1 µM | – | inhibition | 77% and 79% |
| Cc1cccc(O[C@H]2CCC[C@@H](C(C)CNCc3ccncc3)C2)c1 (relative stereo) | enzyme activity, inhibitor | – | 10 µM | – | inhibition | -9% |
| O=C(Nc1cc(-c2ccnc3[nH]ccc23)c(Cl)cn1)[C@H]1CCC[C@@H](NC(=O)C(F)(F)F)C1 | binding, competition with immobilised ligand | – | 0.1 µM | – | remaining binding | 19% |
| Cc1ccc(-c2c(/C=C(\C#N)C(=O)NC(C)C)n(CCCO)c3ncnc(N)c23)cc1 | cell-free assay, competition with immobilised ligand | – | 1 µM | – | remaining binding | 100% |

Excerpt of the above:
| Structure (SMILES) | assay | system | setting | scale | endpoint | value |
| --- | --- | --- | --- | --- | --- | --- |
| COc1cc(Nc2nc(C)cc(-c3cnn4nc(OC)ccc34)n2)cc(C(F)(F)F)c1 | inhibitor | – | 1 µM | relative to: control | remaining activity | 100% |
